Measurements pooled from the literature.
Every numbered part comes from another study and shows a few of its results, in no order. Changes are numbered by the printed parent chain.

Block 1 — technique: protein-binding microarray; form: double-stranded DNA, one strand shown; sample: in vitro; tested at: 250 nM; setting: 60-bp whole probe; with: salmon DNA 0.4 mg/ml; reference: random background probes; direction: higher = stronger binding; quantity: log fluorescence; constant ends, left off below: GCCTAGCAC … GTCTTGATTCGCTTGACGCTGCTG
Target: Interferon regulatory factor 5, full length, phosphomimetic (IRF5, Homo sapiens, UniProt Q13568-2, residues 1-514, K96S/S451D/S453D/S456D/S462D)
Sequence = TTAGGACTGCTATTCCTTTAGTGCTAG; value = -0.223 z-score
Sequence = TTAGCTATCGACACTGGGTTAGTGCTA; value = 2.5 z-score
Sequence = GTAGGACTGGGTTTCGGTTAGTGCTAG; value = 7.94 z-score
Sequence = GACGGTATCGGGCCTGGGGACGTGCTA; value = 0.883 z-score
Sequence = TCAGAACTCAACTGTCTGACTGTGCTA; value = 0.285 z-score

Block 2 — technique: protein-binding microarray; form: double-stranded DNA, one strand shown; sample: in vitro; tested at: not given; direction: higher = stronger binding; quantity: E-score
Target: Transcription factor Sp1 (SP1, Homo sapiens, UniProt P08047, residues 1-785, full length assumed)
Sequence of UniProt P08047 (whole entry, looked up): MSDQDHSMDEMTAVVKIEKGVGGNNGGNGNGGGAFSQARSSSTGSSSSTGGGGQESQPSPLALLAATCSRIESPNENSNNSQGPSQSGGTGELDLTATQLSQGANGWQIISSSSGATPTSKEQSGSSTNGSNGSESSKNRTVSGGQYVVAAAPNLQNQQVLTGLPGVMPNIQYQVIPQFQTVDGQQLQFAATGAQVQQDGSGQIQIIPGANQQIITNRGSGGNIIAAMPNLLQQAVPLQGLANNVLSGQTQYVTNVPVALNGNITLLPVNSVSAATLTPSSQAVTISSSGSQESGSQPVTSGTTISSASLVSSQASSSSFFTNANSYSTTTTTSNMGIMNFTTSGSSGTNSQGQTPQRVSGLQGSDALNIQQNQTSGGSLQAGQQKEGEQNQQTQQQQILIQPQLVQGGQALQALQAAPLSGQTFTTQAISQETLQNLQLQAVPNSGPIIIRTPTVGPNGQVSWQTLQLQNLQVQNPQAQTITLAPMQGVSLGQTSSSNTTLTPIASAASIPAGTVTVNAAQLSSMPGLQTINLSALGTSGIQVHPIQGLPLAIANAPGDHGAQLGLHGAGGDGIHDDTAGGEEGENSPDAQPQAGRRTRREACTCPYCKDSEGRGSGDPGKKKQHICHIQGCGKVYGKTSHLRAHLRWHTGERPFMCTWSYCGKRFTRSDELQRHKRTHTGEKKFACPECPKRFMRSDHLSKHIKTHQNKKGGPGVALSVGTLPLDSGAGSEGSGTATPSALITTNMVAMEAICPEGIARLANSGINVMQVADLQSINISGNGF
Setting: k-mer, scored over probes, only values ≥0.25
Sequence = ACTGTAAG; value = 0.259
Sequence = CCCCATAC; value = 0.362
Sequence = CCCGCCAC; value = 0.304
Sequence = ATAGAGGG; value = 0.334

Single results of other studies — CCNF: CCNF, cyclin fold, Cln2 fusion (human)
P1: E2F2 docking peptide (human); LPAKRKLDLEGIG; partner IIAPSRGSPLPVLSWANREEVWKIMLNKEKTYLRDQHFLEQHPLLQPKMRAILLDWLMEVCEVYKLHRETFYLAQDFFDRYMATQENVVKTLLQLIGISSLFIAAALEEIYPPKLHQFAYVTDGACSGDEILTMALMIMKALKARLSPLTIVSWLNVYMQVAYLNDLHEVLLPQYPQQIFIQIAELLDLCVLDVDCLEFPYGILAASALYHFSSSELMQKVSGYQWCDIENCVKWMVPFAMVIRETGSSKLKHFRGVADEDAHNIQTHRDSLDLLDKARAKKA
P2: CDC6 docking peptide (human); TLKGRRLVFDNQL; partner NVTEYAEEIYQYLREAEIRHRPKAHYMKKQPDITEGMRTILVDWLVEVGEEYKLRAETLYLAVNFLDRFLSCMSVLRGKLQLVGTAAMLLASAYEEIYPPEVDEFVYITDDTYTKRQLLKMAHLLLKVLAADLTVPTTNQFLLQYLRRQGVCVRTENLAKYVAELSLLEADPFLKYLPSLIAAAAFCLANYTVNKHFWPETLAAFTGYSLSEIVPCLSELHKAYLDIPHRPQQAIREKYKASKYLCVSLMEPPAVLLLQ
P3: RBL1 docking peptide (human); GSAKRRLFGEDPP; partner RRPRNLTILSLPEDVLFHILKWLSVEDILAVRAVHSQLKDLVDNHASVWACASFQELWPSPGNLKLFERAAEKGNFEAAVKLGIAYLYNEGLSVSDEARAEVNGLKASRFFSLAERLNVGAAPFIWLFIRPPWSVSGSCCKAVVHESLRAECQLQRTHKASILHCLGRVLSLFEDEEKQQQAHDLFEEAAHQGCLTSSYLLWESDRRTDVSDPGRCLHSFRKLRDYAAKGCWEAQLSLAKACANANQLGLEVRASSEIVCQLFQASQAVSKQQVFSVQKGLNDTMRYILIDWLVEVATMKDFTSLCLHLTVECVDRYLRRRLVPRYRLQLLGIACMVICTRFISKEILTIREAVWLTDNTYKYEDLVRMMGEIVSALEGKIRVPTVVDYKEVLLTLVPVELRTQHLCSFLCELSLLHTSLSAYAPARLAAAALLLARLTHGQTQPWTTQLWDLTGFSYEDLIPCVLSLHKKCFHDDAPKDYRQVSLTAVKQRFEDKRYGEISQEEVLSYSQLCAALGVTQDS
Molecule = P1 D8A; target = CCNE1, cyclin fold, Cln2 fusion (human); test = yeast growth competition, sequencing; system = yeast; conditions = strong parent motif; how to read = reference: not given, higher = stronger binding; quantity = normalised enrichment score; value = -0.305
Molecule = PhoQ, residues 284 288 289 292 302 303 SSYNSA; target = PhoP, residues 12 14 15 18 19 NNFVT (Escherichia coli, UniProt P23836); test = Sort-seq, refers to: YFP reporter; system = E. coli; conditions = PhoQ-PhoP variant library, with: 10 µM Mg2+; how to read = reference: high Mg2+ state, higher = stronger signaling; quantity = fold induction; value = 1.77
Molecule = P2 V8L; target = CCNA1, cyclin fold, Cln2 fusion (human); test = yeast growth competition, sequencing; system = yeast; conditions = weak parent motif; how to read = reference: not given, higher = stronger binding; quantity = normalised enrichment score; value = 0.535
Molecule = P3 R5Q; target = CCNF; test = yeast growth competition, sequencing; system = yeast; conditions = strong parent motif; how to read = reference: not given, higher = stronger binding; quantity = normalised enrichment score; value = 0.458
Molecule = P3 G1T; target = CCNF; test = yeast growth competition, sequencing; system = yeast; conditions = strong parent motif; how to read = reference: not given, higher = stronger binding; quantity = normalised enrichment score; value = 8.62

Repeated from above (block 1):
Sequence = TTAGCTATCGACACTGGGTTAGTGCTA; value = 2.5 z-score
Sequence = TTAGGACTGCTATTCCTTTAGTGCTAG; value = -0.223 z-score
